Published values gathered from unrelated publications.
Lines come from different studies, so protocols differ. Values joined by “and” are separate records of one study, mostly repeats; a detail may differ. ± gives the spread as reported.
Ubiquitin carboxyl-terminal hydrolase 39 ZnF-UBD domain: Ubiquitin carboxyl-terminal hydrolase 39, ZnF-UBD domain (Homo sapiens, UniProt Q53GS9)
UniProt Q53GS9, sequence (whole entry, looked up): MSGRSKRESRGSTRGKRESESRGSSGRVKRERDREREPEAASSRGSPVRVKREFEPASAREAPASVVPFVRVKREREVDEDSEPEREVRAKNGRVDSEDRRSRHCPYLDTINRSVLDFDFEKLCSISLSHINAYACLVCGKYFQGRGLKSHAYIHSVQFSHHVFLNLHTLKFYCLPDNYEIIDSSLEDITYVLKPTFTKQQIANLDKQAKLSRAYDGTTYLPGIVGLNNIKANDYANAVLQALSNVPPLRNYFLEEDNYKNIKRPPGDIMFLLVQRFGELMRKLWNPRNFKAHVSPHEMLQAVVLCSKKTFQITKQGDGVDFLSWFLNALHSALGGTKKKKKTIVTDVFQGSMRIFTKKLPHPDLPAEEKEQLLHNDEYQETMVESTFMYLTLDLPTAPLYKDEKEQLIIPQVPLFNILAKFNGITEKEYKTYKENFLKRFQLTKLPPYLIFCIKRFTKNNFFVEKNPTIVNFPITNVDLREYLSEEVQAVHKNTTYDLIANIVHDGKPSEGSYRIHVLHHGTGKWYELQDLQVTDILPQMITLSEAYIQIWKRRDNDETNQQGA
ZBTB11/CRBN: ZBTB11/CRBN (Homo sapiens, UniProt O95625+Q96SW2)
UniProt O95625, sequence (whole entry, looked up): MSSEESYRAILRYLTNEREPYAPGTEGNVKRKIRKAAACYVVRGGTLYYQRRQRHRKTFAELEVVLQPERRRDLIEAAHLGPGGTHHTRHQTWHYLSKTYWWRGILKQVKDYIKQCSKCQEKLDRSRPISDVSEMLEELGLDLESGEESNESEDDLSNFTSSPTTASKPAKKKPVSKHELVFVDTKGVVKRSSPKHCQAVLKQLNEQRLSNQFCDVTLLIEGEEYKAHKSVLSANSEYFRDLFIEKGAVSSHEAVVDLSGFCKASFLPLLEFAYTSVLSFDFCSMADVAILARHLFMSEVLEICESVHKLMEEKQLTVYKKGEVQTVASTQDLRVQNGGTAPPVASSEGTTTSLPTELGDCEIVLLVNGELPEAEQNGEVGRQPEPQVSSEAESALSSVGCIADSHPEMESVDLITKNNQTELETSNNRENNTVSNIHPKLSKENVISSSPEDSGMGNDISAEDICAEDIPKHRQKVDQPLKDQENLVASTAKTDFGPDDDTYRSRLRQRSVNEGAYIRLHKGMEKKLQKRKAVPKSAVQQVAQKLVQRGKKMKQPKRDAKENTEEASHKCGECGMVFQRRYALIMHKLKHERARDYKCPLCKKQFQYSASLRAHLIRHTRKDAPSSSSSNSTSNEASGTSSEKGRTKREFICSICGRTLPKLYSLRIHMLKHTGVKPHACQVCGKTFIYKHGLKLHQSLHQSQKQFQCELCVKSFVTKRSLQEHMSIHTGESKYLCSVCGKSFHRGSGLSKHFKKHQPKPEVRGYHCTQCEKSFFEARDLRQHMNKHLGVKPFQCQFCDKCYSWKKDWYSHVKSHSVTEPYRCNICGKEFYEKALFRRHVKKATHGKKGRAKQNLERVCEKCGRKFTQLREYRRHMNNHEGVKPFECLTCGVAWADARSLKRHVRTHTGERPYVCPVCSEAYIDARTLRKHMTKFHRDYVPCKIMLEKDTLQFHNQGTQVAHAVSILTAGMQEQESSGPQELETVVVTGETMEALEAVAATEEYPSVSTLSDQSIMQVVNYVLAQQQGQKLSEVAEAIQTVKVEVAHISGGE
UniProt Q96SW2, sequence (whole entry, looked up): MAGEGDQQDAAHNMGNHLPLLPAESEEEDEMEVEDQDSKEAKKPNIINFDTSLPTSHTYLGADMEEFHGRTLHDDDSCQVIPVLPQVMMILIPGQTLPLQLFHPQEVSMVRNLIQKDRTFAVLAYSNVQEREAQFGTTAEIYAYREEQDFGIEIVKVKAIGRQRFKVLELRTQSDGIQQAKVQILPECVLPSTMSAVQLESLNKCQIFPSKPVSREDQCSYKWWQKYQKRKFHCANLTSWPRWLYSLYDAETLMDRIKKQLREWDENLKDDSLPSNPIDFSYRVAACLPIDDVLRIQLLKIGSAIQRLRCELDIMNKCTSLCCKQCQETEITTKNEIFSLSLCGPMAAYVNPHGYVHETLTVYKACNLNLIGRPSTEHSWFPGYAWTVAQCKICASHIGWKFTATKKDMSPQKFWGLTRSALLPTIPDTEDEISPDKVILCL
GUK1: GUK1 (Homo sapiens, UniProt Q16774)
UniProt Q16774, sequence (whole entry, looked up): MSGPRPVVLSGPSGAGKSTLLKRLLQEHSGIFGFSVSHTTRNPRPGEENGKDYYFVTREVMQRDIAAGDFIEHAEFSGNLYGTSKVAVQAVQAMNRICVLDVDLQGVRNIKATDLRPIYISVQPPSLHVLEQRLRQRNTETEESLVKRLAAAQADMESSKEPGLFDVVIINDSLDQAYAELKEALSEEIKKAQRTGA
T1: ssDNA, aptamer; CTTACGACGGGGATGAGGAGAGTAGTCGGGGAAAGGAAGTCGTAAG
UniProt Q64663, sequence (whole entry, unmodified, looked up): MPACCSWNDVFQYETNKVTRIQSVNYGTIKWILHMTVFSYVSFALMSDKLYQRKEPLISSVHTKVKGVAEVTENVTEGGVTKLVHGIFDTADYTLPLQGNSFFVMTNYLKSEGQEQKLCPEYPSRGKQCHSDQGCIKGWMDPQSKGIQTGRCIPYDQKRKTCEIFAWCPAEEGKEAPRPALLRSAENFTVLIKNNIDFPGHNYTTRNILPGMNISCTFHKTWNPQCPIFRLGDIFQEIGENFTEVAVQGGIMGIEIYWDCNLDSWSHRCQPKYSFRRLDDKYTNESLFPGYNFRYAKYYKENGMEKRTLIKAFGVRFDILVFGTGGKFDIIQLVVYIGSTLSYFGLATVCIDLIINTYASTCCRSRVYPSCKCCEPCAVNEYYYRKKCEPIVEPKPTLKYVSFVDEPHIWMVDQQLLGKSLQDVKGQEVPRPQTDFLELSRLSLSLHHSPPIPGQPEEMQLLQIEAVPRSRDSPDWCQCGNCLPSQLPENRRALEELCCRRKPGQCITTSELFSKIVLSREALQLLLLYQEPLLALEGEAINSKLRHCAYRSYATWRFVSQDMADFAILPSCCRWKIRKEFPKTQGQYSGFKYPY
UniProt Q8IWT6, sequence (whole entry, unmodified, looked up): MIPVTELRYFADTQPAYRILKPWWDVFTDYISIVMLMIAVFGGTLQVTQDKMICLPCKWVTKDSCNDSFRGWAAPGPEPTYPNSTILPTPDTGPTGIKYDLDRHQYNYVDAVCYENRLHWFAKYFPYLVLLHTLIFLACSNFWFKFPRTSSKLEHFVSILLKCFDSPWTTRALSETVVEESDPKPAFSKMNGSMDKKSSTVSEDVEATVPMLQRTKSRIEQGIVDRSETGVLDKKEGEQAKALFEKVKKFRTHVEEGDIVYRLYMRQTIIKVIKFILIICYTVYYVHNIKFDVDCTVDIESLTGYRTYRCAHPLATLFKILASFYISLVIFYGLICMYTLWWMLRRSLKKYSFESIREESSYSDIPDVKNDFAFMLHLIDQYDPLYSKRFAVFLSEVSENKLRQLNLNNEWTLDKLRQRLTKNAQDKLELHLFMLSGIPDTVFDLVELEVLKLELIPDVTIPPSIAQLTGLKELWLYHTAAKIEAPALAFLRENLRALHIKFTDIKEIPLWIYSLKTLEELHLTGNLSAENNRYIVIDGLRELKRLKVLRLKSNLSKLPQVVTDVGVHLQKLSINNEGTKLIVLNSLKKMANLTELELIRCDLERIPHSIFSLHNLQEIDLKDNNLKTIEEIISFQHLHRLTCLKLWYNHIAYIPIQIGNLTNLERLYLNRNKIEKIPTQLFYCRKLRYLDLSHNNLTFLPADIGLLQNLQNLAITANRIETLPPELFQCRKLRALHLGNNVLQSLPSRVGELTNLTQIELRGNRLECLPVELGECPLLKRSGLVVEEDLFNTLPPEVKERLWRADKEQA
UniProt O00482, sequence (whole entry, looked up): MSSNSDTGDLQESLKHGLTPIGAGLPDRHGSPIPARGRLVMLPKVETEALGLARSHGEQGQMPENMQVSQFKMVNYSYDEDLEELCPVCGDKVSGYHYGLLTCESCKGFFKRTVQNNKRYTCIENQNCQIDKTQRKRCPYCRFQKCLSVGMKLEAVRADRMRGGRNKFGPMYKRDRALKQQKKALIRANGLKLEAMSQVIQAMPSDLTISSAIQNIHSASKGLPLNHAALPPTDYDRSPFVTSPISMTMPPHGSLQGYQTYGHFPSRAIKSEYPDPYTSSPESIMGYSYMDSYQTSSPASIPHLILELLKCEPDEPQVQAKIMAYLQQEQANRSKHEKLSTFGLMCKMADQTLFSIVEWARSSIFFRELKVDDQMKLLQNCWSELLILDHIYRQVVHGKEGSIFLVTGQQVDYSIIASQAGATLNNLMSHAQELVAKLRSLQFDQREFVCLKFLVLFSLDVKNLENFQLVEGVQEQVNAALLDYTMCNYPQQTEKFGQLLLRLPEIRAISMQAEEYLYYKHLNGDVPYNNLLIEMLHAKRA
UniProt P51575, sequence (whole entry, unmodified, looked up): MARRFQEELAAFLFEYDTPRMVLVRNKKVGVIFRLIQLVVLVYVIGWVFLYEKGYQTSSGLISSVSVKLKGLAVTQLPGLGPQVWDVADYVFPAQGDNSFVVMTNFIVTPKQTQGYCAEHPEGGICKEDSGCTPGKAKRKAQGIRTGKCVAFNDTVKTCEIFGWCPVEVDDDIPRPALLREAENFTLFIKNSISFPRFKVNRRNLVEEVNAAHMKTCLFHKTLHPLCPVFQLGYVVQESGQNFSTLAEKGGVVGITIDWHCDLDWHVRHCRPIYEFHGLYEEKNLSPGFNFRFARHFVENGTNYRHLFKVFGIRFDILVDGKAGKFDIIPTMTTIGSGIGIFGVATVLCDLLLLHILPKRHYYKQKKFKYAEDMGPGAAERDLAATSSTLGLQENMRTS
UniProt Q9NPF4, sequence (whole entry, looked up): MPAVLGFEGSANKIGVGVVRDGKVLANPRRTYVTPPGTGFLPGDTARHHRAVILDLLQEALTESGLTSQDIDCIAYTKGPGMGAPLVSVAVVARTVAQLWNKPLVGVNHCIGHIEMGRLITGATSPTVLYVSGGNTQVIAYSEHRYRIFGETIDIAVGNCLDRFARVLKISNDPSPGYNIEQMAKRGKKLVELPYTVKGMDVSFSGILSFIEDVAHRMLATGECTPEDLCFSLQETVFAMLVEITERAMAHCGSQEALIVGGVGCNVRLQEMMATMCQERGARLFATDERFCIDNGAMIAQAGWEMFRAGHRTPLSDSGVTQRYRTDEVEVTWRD

O=c1cc(-c2ccc([N+](=O)[O-])cc2)[nH]c2c(-c3ccc(Cl)cc3)c(Cc3ccccc3)nn12 — melting temperature shift (tRNA N6-adenosine threonylcarbamoyltransferase (Homo sapiens, UniProt Q9NPF4); thermal stability, binder, thermal proteome profiling; RD, cell lysate; 50 µM, 0.5% DMSO; relative to: DMSO vehicle): 3.7 °C
CC(C)C[C@H](N)C(=O)Nc1ccc2ccccc2c1 — kcat (rat neuron-specific aminopeptidase; substrate; MW 110 kDa): 12.3 s⁻¹
O=C(O)CCC(=O)c1ccc(S(=O)(=O)N2CCCC2)cc1 — Kd (Ubiquitin carboxyl-terminal hydrolase 39 ZnF-UBD domain): > 1000 µM
CCc1cnn2c(NCc3ccc[n+]([O-])c3)cc(N3CCCC[C@H]3CCO)nc12 — chemical shift change (BRD4 (Homo sapiens, UniProt O60885); 19F NMR, item: tyrosine 119; 186 µM; relative to: free protein): -0.016 ppm
CN(C)C(=O)C(CCN1CCC(O)(c2ccc(Cl)cc2)CC1)(c1ccccc1)c1ccccc1 — effective gating valence (Calcium-activated potassium channel subunit alpha-1, with LRRC26 γ1 subunit (KCNMA1, Homo sapiens, UniProt Q12791); BK current, inside-out patch clamp; excised membrane patch; 3 µM, γ1 subunit coexpressed, added: nominally 0 Ca2+ cytosolic): 1.09 elementary charges
Nc1ncnc2c1ncn2[C@@H]1O[C@H](COP(=O)(O)OP(=O)(O)OP(=O)(O)O)[C@@H](O)[C@H]1O — Kd (T1, ssDNA, aptamer; ITC): 0.782 µM
CCC(C)(NCCc1ccccc1)c1cccc(NC2=CC(=O)N(C3CCC(=O)NC3=O)C2=O)c1 (centres unmarked) — Dmax (ZBTB11/CRBN; protein degradation, degrader, HiBiT luminescence; MOLT-4): 33%
CC1=C(/C=C/C(C)=C/C=C/C(C)=C/C=C/C=C(C)/C=C/C=C(C)/C=C/C2=C(C)CCCC2(C)C)C(C)(C)CCC1 — Stern-Volmer quenching constant (Beta-lactoglobulin (LGB, Bos taurus, UniProt P02754); fluorescence quenching; 303 K): 11400 ± 300 L/mol
O=C(O)c1ccc(Nc2ncc3c(n2)-c2ccc(Cl)cc2C(c2c(F)cccc2F)=NC3)cc1 — remaining activity (MAPKAP-K2(h); kinase activity; 1 µM): 101%
CCN1CCN(c2ccc(Nc3cc(N(C)C(=O)Nc4c(Cl)c(OC)cc(OC)c4Cl)ncn3)cc2)CC1 — inhibition (NLRP3 inflammasome (mouse); mouse BMDM; 10 µM): 15.7%
OCCn1cc(-c2ccc3c(c2)CC/C3=N\O)c(-c2ccncc2)n1 — beat amplitude (iCell Cardiomyocytes (hiPSC-derived); xCELLigence Cardio impedance; concentration not given, 2 h; relative to: control): 106%
CC[C@@H](C)[C@@H](NC(=O)[C@@H](Cc1ccc(O)cc1)NC(=O)[C@H]1CCCN1C(=O)[C@@H](CCCNC(=N)N)NC(=O)[C@H](N)Cc1c[nH]cn1)C(=O)N[C@H](C)C(=O)N[C@H](Cc1c[nH]cn1)C(=O)N[C@H](CCCNC(=N)N)C(=O)N[C@@H](C(=O)N[C@H](Cc1ccc(O)cc1)C(=O)N[C@H](CO)C(=O)N[C@H](Cc1ccccc1)C(N)=O)C(C)C — surface TFRC expression (Transferrin receptor protein 1 (Tfrc, Mus musculus, UniProt Q62351); flow cytometry; RAW264.7; 48 h, pH 6, replicate 1, unit not given; relative to: 0 h): 0.934
N=C(N)Nc1nc2ccccc2[nH]1 — Hill coefficient (HVCN1 (Homo sapiens, UniProt Q96D96, F150W); proton current, inhibitor, inside-out patch clamp): 0.92 ± 0.03
CC(=O)N[C@H]1[C@@H](OP(=O)(O)OP(=O)(O)OC[C@H]2O[C@@H](n3ccc(=O)[nH]c3=O)[C@H](O)[C@@H]2O)O[C@H](CO)[C@@H](O)[C@@H]1O — z-scored log2 fold change (binding, equilibrium dialysis LC-MS; 5 µM, thermostabilized A2AR-BRIL construct; relative to: no-protein control, direction not given): 0.075
O=C(Nc1cccc2c(=O)cc(-c3nnn[nH]3)oc12)c1ccc(OCCCCc2ccccc2)cc1 — inhibition (LRRC8A/LRRC8C (Homo sapiens, UniProt Q8IWT6+Q8TDW0, M48D/T48D); ion current, whole-cell patch clamp; HCT LRRC8-/- cells; 0.3 µM, -100 mV, T48D/M48D heteromers): 5.41% and -6.02% and -2.66%
O=C1CCC(N2C(=O)C=C(Nc3cccc(C4(NCCc5ccc(Cl)c(C(F)(F)F)c5)CCC4)c3)C2=O)C(=O)N1 (centres unmarked) — Dmax (ZBTB11/CRBN; degrader, HiBiT; MIA PaCa-2 (ZBTB11/CRBN-HiBiT knock-in); 10 µM, 24 h): 80%
CCCCC[C@H](O)/C=C/[C@H]1[C@H](O)CC(=O)[C@@H]1C/C=C\CCCC(=O)O — time to peak cAMP (CYSLTR2 (Homo sapiens, UniProt Q9NS75); GloSensor; HEK293T; 1 nM): ≤ 120 min
CCCN(CCC)S(=O)(=O)c1ccc(C(=O)O)cc1 — Hill coefficient (Trpv2 (Rattus norvegicus, UniProt Q9WUD2); calcium influx, agonist, Fura-2 fluorescence; Pichia pastoris membrane vesicles): 2.1
CC[C@@H]1[C@H](F)C(=O)N[C@@H]1COc1nccc2cc(C(N)=O)c(OC)cc12 — inhibition (IRAK3 (Homo sapiens, UniProt Q9Y616); ATP-site probe binding, inhibitor, ActivX ATP probe profiling; THP-1 cell lysate; 0.2 mM, kinase domain site): 34%
N#Cc1ccn2c(-c3ccncc3)c(-c3ccc(F)cc3)nc2c1 — log2 fold change (Negative regulator of the PHO system (PHO85, Candida albicans, UniProt Q9HGY5); kinase binding, competitor, MIB/MS competition, item: PHO85; Candida albicans cell lysate; 1 µM; relative to: DMSO): 0.337
COc1cc(-c2cncc3c2CN(C)Cc2cc(N4CCNCC4)ccc2-3)cc(OC)c1OC — remaining activity (STK38 (Homo sapiens, UniProt Q15208); kinase activity; 1 µM, human enzyme, added: ATP 10 µM; relative to: DMSO control): 118%
[H]/N=C(/N)NCC(=O)O — normalised MST signal (SLC6A6 (Homo sapiens, UniProt P31641, G62A); binding, microscale thermophoresis; 488 nM, room temperature, added: 50 nM labelled protein; higher = more binding): -0.0599
COC(=O)c1ccc2c(c1)NC(=O)/C2=C(\Nc1ccc(N(C)C(=O)CN2CCN(C)CC2)cc1)c1ccccc1 — inhibition (NLRP3 inflammasome (mouse); mouse BMDM; 10 µM): 36.6%
O=C(COP(=O)(O)O)[C@@H](O)[C@H](O)[C@H](O)COP(=O)(O)O — thermal stability ratio (PNPT1 (Homo sapiens, UniProt Q8TCS8); thermal proteome profiling; HepG2 cell lysate; concentration not given, 57 over 37 °C, mean; relative to: compound over control): 0.562
CCN(CC)CCNC(=O)C1CCN(c2ccc3nnc(-c4cccc(C)c4)n3n2)CC1 — inward current density (CatSper channel complex (Homo sapiens, UniProt Q7RTX7+Q86XQ3+Q8NEC5+Q96P56); ion current, whole-cell patch clamp; human sperm; 10 µM, at -80 mV): -1.2 ± 0.4 pA/pF
Nc1ncnc2c1ncn2[C@@H]1O[C@H](COP(=O)(O)OP(=O)(O)O)[C@@H](O)[C@H]1O — ΔH (GUK1; binding, isothermal titration calorimetry; molar ratio 1.11, fitted curve): -1.19 kcal/mol
COc1cc(-c2cc(C(C)=O)n3ccccc23)cc(OC)c1Cn1ccnc1 — ΔTm (Bromodomain-containing protein 3, BD1 (BRD3, Homo sapiens, UniProt Q15059)): 1.8 °C
C=CC(=O)N1CCC(COCC(=O)N2CCN(c3nc(-c4cnc(N)nc4C(F)F)nc(N4CCOC[C@@H]4C)n3)CC2)CC1 — remaining binding (PRKG2 (Homo sapiens, UniProt Q13237); KINOMEscan; 1 µM): 100%
NS(=O)(=O)c1ccc(NC(=O)Nc2ccc(F)cc2)cc1 — selectivity ratio (CA12 (Homo sapiens, UniProt O43570); stopped-flow CO2 hydration; relative to: Ki CA II over Ki CA XII): 213
Nc1ncnc2c1ncn2[C@H]1C[C@H](O)[C@@H](CO)O1 — z-scored log2 fold change (binding, equilibrium dialysis LC-MS; 5 µM, thermostabilized A2AR-BRIL construct; relative to: no-protein control, direction not given): 0.508
CC(C)CCC[C@@H](C)[C@H]1CC[C@H]2[C@@H]3CC=C4C[C@@H](O)CC[C@]4(C)[C@H]3CC[C@]12C — Kd increase (CYP11A1 (Homo sapiens, UniProt P05108); added: 40-fold excess adrenodoxin; relative to: no adrenodoxin): 1.7 fold
Nc1ncnc2c1ncn2[C@@H]1O[C@H](COP(=O)(O)CP(=O)(O)OP(=O)(O)O)[C@@H](O)[C@H]1O — specific binding (P2X purinoceptor 1 (P2RX1, Homo sapiens, UniProt P51575, R139P); saturation binding; HEK293; 103 nM): 1860 CCPM and 1890 CCPM
O=c1nc(SCc2cc(F)cc(C(F)(F)F)c2)nc(SCc2ccc3sccc3c2)[nH]1 — relaxed DNA (TOP2A (Homo sapiens, UniProt P11388); DNA relaxation; 31.25 µM, replicate 1): 6.1%
Cc1ncsc1-c1ccc(CNC(=O)[C@@H]2C[C@@H](O)CN2C(=O)[C@@H](NC(=O)CCCCCCCCCCCC(=O)NCCCCC#Cc2cccc(-c3nn(-c4nc(C(=O)O)cs4)c(CC4CC4)c3Cc3ccc(S(N)(=O)=O)cc3)c2)C(C)(C)C)cc1 — Dmax (LDHA (Homo sapiens, UniProt P00338); degrader, western blot; PANC-1; 48 h): 93 ± 2.6%
CCN1CCN(c2cc(N3CCN(CC)CC3)nc(NCCNc3ccnc4cc(Cl)ccc34)n2)CC1 — activation (NR5A2 (Homo sapiens, UniProt O00482); reporter gene, Gal4 hybrid reporter; 20 µM; relative to: vehicle): 1.18 fold
O=C(O)CCc1nc2ccccc2c2nc(Cc3ccccc3)nn12 — Kd (Ubiquitin carboxyl-terminal hydrolase 39 ZnF-UBD domain): > 1000 µM
Nc1nc2c(ncn2[C@@H]2O[C@H](COP(=O)(O)O)[C@@H](O)[C@H]2O)c(=O)[nH]1 — reaction velocity (GUK1; enzyme activity, NADH-coupled; 1000 µM, added: KCl 150 mM): 0.0727 µM/s and 0.0663 µM/s and 0.0723 µM/s
Nc1ncnc2c1ncn2[C@@H]1O[C@H](COP(=O)(O)OP(=O)(O)OP(=O)(O)O)[C@@H](O)[C@H]1O — normalized current (P2X purinoceptor 7 (P2rx7, Rattus norvegicus, UniProt Q64663); ion current, agonist, two-electrode voltage clamp; Xenopus laevis oocytes; 100 µM; relative to: 100 µM compound response): 1

A few entries again:
CN(C)C(=O)C(CCN1CCC(O)(c2ccc(Cl)cc2)CC1)(c1ccccc1)c1ccccc1 — effective gating valence (Calcium-activated potassium channel subunit alpha-1, with LRRC26 γ1 subunit (KCNMA1, Homo sapiens, UniProt Q12791); BK current, inside-out patch clamp; excised membrane patch; 3 µM, γ1 subunit coexpressed, added: nominally 0 Ca2+ cytosolic): 1.09 elementary charges
Nc1ncnc2c1ncn2[C@@H]1O[C@H](COP(=O)(O)OP(=O)(O)OP(=O)(O)O)[C@@H](O)[C@H]1O — Kd (T1, ssDNA, aptamer; ITC): 0.782 µM
CCC(C)(NCCc1ccccc1)c1cccc(NC2=CC(=O)N(C3CCC(=O)NC3=O)C2=O)c1 (centres unmarked) — Dmax (ZBTB11/CRBN; protein degradation, degrader, HiBiT luminescence; MOLT-4): 33%
